# Published values of several laboratories.
# Every numbered part comes from another study and shows a few of its results, in no order.
# UniProt Q9UEE5, sequence (whole entry, looked up): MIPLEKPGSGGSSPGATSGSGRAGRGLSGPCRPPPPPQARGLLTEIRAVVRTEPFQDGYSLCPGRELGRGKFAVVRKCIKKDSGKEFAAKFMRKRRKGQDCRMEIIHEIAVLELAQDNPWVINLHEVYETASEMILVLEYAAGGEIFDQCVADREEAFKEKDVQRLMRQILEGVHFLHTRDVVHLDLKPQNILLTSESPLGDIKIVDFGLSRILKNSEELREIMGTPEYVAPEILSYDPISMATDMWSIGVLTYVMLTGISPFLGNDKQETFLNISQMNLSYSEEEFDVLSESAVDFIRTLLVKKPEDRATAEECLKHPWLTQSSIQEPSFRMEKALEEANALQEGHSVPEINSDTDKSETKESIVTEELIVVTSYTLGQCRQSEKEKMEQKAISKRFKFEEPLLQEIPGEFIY
# UniProt P42681, sequence (whole entry, looked up): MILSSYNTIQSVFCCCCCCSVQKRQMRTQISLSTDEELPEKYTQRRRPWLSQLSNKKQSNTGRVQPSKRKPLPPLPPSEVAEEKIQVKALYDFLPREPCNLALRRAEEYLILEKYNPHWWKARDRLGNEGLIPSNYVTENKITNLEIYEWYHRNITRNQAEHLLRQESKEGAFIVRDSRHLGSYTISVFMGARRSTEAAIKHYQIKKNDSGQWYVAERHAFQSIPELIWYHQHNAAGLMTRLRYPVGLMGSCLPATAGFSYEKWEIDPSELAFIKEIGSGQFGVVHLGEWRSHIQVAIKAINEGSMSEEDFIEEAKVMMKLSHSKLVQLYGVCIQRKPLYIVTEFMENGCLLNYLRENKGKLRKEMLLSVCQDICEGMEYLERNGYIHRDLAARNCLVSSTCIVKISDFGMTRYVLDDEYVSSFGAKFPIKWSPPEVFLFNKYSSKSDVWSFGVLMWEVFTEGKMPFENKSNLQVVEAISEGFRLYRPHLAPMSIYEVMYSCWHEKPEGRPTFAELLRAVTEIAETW
# UniProt P10721, sequence (whole entry, looked up): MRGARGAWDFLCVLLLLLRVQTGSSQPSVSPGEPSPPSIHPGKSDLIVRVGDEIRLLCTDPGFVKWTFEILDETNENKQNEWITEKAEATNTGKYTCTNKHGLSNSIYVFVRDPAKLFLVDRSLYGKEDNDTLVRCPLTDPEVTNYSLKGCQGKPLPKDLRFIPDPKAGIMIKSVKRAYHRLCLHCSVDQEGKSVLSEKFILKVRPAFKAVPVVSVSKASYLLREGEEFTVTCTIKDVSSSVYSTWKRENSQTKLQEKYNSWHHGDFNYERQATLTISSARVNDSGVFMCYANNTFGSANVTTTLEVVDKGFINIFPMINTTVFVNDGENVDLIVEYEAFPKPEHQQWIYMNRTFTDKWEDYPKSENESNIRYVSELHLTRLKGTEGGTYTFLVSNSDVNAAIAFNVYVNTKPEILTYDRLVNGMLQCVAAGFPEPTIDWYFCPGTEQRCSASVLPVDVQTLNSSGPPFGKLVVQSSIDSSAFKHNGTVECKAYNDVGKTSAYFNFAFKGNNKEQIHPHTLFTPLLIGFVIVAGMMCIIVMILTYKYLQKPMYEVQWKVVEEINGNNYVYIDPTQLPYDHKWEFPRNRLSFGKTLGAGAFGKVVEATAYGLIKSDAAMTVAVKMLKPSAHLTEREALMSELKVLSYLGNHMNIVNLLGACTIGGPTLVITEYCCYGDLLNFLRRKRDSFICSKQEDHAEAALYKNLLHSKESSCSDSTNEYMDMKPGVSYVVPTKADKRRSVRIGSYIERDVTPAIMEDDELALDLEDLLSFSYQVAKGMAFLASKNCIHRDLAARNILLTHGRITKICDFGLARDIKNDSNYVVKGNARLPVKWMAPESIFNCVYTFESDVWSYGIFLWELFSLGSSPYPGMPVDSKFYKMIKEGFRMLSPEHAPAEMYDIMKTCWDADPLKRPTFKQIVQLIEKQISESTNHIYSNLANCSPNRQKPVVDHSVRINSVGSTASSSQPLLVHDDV
# UniProt Q8NG66, sequence (whole entry, looked up): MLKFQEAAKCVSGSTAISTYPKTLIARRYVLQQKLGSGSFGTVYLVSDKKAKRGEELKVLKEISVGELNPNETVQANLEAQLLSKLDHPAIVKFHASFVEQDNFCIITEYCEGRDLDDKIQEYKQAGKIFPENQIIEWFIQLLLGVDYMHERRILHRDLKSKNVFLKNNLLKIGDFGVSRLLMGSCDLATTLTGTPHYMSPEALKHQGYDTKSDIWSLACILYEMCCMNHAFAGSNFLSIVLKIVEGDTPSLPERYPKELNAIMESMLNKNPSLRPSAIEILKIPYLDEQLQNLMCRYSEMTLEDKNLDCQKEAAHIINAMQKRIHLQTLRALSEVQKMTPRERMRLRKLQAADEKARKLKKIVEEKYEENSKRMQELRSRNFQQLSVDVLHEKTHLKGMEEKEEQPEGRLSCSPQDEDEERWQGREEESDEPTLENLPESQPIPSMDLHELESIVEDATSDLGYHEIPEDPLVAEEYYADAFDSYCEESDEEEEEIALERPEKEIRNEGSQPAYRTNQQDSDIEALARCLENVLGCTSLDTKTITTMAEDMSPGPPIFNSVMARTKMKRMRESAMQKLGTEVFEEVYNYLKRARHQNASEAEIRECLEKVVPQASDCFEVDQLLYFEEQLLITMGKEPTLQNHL
# UniProt Q00532, sequence (whole entry, looked up): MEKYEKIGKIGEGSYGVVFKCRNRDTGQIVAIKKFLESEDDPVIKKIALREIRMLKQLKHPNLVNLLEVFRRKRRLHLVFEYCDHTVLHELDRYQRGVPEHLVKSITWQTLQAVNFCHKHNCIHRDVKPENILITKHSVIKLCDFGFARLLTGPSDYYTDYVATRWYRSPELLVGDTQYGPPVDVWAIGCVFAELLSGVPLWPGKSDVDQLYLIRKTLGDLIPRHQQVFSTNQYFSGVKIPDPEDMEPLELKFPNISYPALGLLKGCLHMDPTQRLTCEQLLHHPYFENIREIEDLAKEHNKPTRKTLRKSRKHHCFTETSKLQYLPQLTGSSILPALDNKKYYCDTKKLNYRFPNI
# UniProt Q00536, sequence (whole entry, looked up): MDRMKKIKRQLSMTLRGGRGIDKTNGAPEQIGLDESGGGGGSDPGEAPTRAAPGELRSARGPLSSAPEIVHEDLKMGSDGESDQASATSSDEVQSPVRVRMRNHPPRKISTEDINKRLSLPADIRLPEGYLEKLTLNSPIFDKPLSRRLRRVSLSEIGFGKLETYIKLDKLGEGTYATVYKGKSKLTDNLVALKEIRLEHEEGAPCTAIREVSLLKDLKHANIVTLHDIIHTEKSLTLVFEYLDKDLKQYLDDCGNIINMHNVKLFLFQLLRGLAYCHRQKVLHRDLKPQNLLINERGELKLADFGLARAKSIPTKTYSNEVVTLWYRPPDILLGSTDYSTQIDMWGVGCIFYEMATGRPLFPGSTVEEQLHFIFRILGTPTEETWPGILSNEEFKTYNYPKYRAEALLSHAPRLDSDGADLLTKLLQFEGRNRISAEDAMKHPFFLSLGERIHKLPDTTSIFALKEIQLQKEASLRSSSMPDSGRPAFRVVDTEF
# UniProt P41240, sequence (whole entry, looked up): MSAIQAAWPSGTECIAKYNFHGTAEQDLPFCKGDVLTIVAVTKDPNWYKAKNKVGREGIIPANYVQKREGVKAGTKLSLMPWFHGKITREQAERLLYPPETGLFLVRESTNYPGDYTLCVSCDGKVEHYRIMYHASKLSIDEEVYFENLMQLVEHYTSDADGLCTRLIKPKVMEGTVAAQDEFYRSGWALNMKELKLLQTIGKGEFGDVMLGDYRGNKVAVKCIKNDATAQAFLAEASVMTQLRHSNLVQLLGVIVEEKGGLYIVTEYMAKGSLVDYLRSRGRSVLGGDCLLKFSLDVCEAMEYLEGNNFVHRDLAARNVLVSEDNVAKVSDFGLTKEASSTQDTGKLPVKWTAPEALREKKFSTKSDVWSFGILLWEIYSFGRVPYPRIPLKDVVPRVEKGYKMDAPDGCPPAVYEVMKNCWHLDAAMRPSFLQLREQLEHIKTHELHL
# UniProt Q9UIK4, sequence (whole entry, looked up): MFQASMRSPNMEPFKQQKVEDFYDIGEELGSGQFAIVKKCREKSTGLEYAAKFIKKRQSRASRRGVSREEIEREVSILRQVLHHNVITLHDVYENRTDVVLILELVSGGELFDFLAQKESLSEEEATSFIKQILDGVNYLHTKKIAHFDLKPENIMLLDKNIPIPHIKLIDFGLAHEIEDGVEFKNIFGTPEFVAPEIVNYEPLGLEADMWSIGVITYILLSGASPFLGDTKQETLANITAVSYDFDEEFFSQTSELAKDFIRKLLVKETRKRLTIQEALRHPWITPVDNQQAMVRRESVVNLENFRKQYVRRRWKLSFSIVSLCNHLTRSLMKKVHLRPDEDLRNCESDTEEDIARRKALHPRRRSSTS

# Sample 1 — technique: competition with immobilised ligand; concentration: 1 µM
# Structure (SMILES): O=C(NCc1ncc(C(F)(F)F)cc1Cl)c1ccc2c(c1)C1(CCS(=O)(=O)CC1)[C@H](C1CC1)N2S(=O)(=O)c1ccc(F)cc1
target,assay,remaining binding [%]
"STK17A (Homo sapiens, UniProt Q9UEE5)",cell-free assay,100
"MAP3K10 (Homo sapiens, UniProt Q02779)",cell-free assay,100
"EGFR (Homo sapiens, UniProt P00533, G719S)",cell-free assay,92
"CDK16 (Homo sapiens, UniProt Q00536)",cell-free assay,100
"TNIK (Homo sapiens, UniProt Q9UKE5)",cell-free assay,100
"CSK (Homo sapiens, UniProt P41240)",cell-free assay,97
"DAPK2 (Homo sapiens, UniProt Q9UIK4)",cell-free assay,99
"Mast/stem cell growth factor receptor Kit, autoinhibited (KIT, Homo sapiens, UniProt P10721)",cell-free assay,76
"TXK (Homo sapiens, UniProt P42681)",binding,100
"CDKL1 (Homo sapiens, UniProt Q00532)",cell-free assay,90
"PRKACA (Homo sapiens, UniProt P17612)",cell-free assay,86
"NEK11 (Homo sapiens, UniProt Q8NG66)",cell-free assay,100
"INSRR (Homo sapiens, UniProt P14616)",cell-free assay,100

# Sample 2 — cell line: HaCaT; concentration: 100 µM; time: 18 h
Compound,viability
COc1cc2c(cc1O)[C@@H](Cc1ccc(O)c(Oc3ccc(C[C@@H]4c5cc(OC)c(OC)cc5CCN4C)cc3)c1)N(C)CC2,21.7%
O=c1[nH]c(=O)n([C@H]2C[C@H](O)[C@@H](CO)O2)cc1C(F)(F)F,90.5%
CCOc1ccc(Cc2cc([C@@H]3O[C@H](CO)[C@@H](O)[C@H](O)[C@H]3O)ccc2Cl)cc1,87.6%
Cc1c(CNCS(=O)(=O)O)c(=O)n(-c2ccccc2)n1C,122%
CO[C@H]1C(=O)[C@]2(C)[C@@H](OC)C[C@H]3OC[C@@]3(OC(C)=O)[C@H]2[C@H](OC(=O)c2ccccc2)[C@]2(O)C[C@H](OC(=O)[C@H](O)[C@@H](NC(=O)OC(C)(C)C)c3ccccc3)C(C)=C1C2(C)C,71.9%
CS(=O)(=O)n1cc2c(n1)CN([C@H]1CO[C@H](c3cc(F)ccc3F)[C@@H](N)C1)C2,95.2%
OCc1ccccc1O[C@@H]1O[C@H](CO)[C@@H](O)[C@H](O)[C@H]1O,108%
Cn1nnc2c(C(N)=O)ncn2c1=O,107%
CCCCCCCCCCCCCCCCOP(=O)([O-])OCC[N+](C)(C)C,73.1%
C=CC(=O)Nc1cc(Nc2nccc(-c3cn(C)c4ccccc34)n2)c(OC)cc1N(C)CCN(C)C,16.4%
Nc1nc(=O)n([C@@H]2CS[C@H](CO)O2)cc1F,99.6%
Cc1cc(CC(=O)O)n(C)c1C(=O)c1ccc(Cl)cc1,90.5%
CCN1CC(CCN2CCOCC2)C(c2ccccc2)(c2ccccc2)C1=O (centres unmarked),108%

# Sample 3 — effect on: enzyme activity; mode: inhibitor; concentration: 0.5 µM; baseline: control
# Target: Cyclin-dependent kinase 5, with p35 (CDK5, Homo sapiens, UniProt Q00535)
# UniProt Q00535, sequence (whole entry, looked up): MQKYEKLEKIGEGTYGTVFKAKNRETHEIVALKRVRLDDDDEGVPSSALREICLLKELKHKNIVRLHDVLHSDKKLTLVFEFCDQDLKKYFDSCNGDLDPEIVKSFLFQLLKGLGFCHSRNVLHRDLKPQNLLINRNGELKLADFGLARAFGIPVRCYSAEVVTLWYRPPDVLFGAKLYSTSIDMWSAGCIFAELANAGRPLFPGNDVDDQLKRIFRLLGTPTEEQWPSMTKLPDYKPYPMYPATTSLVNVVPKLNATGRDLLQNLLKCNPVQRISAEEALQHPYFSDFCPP
Structure (SMILES),remaining activity [%]
O=C1C(Cl)=C(N2C(=O)CCC2=O)C(=O)c2ccccc21,93.7
c1ccc(-c2[nH]ncc2-c2ccnc3ccccc23)nc1,98.6
Cc1cn(-c2cc(NC(=O)c3ccc(C)c(Nc4nccc(-c5cccnc5)n4)c3)cc(C(F)(F)F)c2)cn1,105
N#C/C(=C\c1ccc(O)c(O)c1)C(=O)NCc1ccccc1,99.8
CCN(CC)C(=O)c1ccc(Nc2nc(OCC3CCCCC3)c3[nH]cnc3n2)cc1,77.1
Ic1cccc(CSc2nnc(-c3ccncc3)o2)c1,102
O=C(NC(NC(=S)Nc1ccc(F)c([N+](=O)[O-])c1)C(Cl)(Cl)Cl)C(c1ccccc1)c1ccccc1 (centres unmarked),107
COc1cc2c(cc1OC)-c1[nH]nc(Nc3cccc(F)c3)c1C2,102
C[C@@H]1CCN(C(=O)CC#N)C[C@@H]1N(C)c1ncnc2[nH]ccc12,99.5
Cc1cc2ncc(-c3ccccc3)nc2cc1C,89.1
CN(C)C[C@H]1CCn2c(c(C3=C(c4cn(C)c5ccccc45)C(=O)NC3=O)c3ccccc32)C1,85.4
CCN(CC)CCNC(=O)c1c(C)[nH]c(/C=C2\C(=O)Nc3ccc(Cl)cc32)c1C,86.2
COc1cc2ncnc(Nc3cccc(Cl)c3)c2cc1OC,91
O=c1cc(-c2cccc3c2Sc2ccccc2S3)oc(N2CCOCC2)c1,99.5
CN([C@@H](Cc1ccc(OS(=O)(=O)c2cccc3cnccc23)cc1)C(=O)N1CCN(c2ccccc2)CC1)S(=O)(=O)c1cccc2cnccc12,99.5
Cn1nc2c3c(cccc31)C(=O)c1ccccc1-2,105
COc1cc2ncnc(Nc3ccc(O)c(Br)c3)c2cc1OC,99.6
Cc1nc2cc3nc(-c4cccs4)cnc3cc2n1C,107
Nc1cccc(-c2cc3c(Oc4cccc(O)c4)ncnc3[nH]2)c1,72.2
CCOc1nc(NC(=O)Cc2cc(OC)ccc2OC)cc(N)c1C#N,105
c1ccc(-c2cnc(Nc3ccc(OCCN4CCCC4)cc3)s2)cc1,82.4
N#Cc1c(NC(=O)c2cccc3ccccc23)sc2c1CCCC2,105
O=C(Nc1cccc(Nc2nccc(Nc3cccc(C(F)(F)F)c3)n2)c1)C1CC1,105

# Sample 4 — technique: phase 2a clinical trial
# Structure (SMILES): CC(C)n1cnc(-c2ccc(F)cc2)c1-c1ncc(C(=O)Nc2ccc(N3CCN(C)CC3)cc2)[nH]1
# Host: patients with idiopathic pulmonary fibrosis
assay,setting,patients with treatment-emergent adverse events
measured: gastro-oesophageal reflux disease,"60 mg once daily, Grade 1",0%
measured: left ventricular dysfunction,"60 mg once daily, Grade 3",0%
measured: gastro-oesophageal reflux disease,"30 mg once daily, Grade 4",0%
measured: C-reactive protein increased,"60 mg once daily, Grade 2",0%
measured: interstitial lung disease,"dose not given, Grade 4, all drug arms",0%
measured: electrocardiogram T wave abnormal,"dose not given, Grade 1, all drug arms total",0%
measured: hepatic function abnormal,"30 mg once daily, Grade 3",0%
measured: electrocardiogram QT prolonged,"60 mg once daily, Grade 4",0%
measured: hepatic function abnormal,"60 mg once daily, Grade 5",0%
measured: carbon dioxide decreased,"30 mg once daily, Grade 3",0%

# For quick reference, copied from above (sample 4):
assay,setting,patients with treatment-emergent adverse events
measured: C-reactive protein increased,"60 mg once daily, Grade 2",0%
measured: interstitial lung disease,"dose not given, Grade 4, all drug arms",0%
measured: electrocardiogram T wave abnormal,"dose not given, Grade 1, all drug arms total",0%
